Experimental data pooled from the literature.
Parts stem from different laboratories: compare values within a part only.

Block 1
Target: Histone acetyltransferase KAT6A, both winged helices, GST fusion (KAT6A, Homo sapiens, UniProt Q92794, residues 1-181)
Method: protein binding microarray
Molecule type: double-stranded DNA, one strand shown
Matrix: in vitro
Concentration: not given
Setting: 8-mer, flanks averaged, mean of 2 arrays, mostly near background
Baseline: not given
Direction: higher = stronger binding
Endpoint: E-score
Residues (chain): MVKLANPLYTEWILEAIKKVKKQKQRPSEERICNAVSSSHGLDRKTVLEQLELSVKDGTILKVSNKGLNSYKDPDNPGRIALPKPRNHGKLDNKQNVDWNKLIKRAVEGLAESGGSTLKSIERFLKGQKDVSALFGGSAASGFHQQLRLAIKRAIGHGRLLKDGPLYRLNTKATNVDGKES
TCCTGGCA: -0.148
CATCGCAG: 0.0422
GACCGGAA: 0.149
CATGAGAG: -0.158
AGGCTAGA: -0.142
ATTTTGTG: -0.0826
CGGGTATA: 0.232
AGTCGCGG: 0.257
ATATCGTG: 0.0281
GTACGTTA: 0.127
ATTGATAC: 0.121
AACTAATA: -0.0111
ACAGCACC: 0.01
AGTATACA: -0.0928
ACTTGCGA: -0.0265
TATTCCCA: -0.102
CGGCCTAA: 0.141
CTCAGTAC: -0.0901
CGCTTACG: 0.295
ATCTATAC: -0.0132
ACGCCGCA: 0.276
CGAAGAGA: -0.0448

Block 2
Target: Ras GTPase-activating protein-binding protein 1, full length (G3BP1, Homo sapiens, UniProt Q13283)
Chain of UniProt Q13283 (whole entry, looked up): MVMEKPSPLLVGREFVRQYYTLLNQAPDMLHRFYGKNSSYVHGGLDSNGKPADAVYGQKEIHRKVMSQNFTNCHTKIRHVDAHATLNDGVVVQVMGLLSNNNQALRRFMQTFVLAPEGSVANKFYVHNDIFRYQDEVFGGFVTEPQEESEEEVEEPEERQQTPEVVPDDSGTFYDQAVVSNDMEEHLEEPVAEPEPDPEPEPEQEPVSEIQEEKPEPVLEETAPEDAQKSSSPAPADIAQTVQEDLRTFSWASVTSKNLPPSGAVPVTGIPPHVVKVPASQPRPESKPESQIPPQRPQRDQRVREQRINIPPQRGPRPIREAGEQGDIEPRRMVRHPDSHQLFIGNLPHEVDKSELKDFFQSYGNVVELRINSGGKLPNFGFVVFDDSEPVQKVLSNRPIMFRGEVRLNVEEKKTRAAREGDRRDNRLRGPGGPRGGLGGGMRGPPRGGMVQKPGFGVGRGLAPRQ
Method: RNA Bind-n-Seq
Molecule type: RNA
Matrix: in vitro
Concentration: 200 nM
Setting: whole 134-nt RNA, ends assumed
With: 150 mM KCl
Baseline: input library
Direction: higher = stronger binding
Endpoint: log2 enrichment
Shared flanks, not repeated: GGGAGUUCUACAGUCCGACGAUC … UGGAAUUCUCGGGUGUCAAGG
GUCCUGUGCUACACAUCGUAUGUACCGAAUCGGGAAAAAAAGGGUUUUUGGGUUUGGGAAAGUAUUAUGUUACGCCGUUCGGAUCUGCAC: -0.519
GCAGGAAGUAAAAACAAAUGGAAAUGCUUCGGAUAGUGGCAGGGGUGGGGAAAGCUAAGGAAAGGGUGGGAUGGGAGUGGGUAAAGAGUU: 1.1
CCUCAAGUCCUGUGCUACACAUCGUAUGUACCGAAUCGGGAAGGAAGGAAGGAAAGUAUUAUGUUACGCCGUUCGGAUCUGCACUUCCAG: -0.0422
UGGGAGGUGGAUUUUGUUUAUUUUUUUAGCACAUUUCCAGGGGUGGGAAUUUUUUUUUAAUAUGUGUCAUGAAUAAAGUUGUUUUUGAAA: 0.128
GUCCUGUGCUACACAUCGUAUGUACCGAAUCAAACCCAAAUUUUUAAACCCCCCCAAAAAAGUAUUAUGUUACGCCGUUCGGAUCUGCAC: -0.00791
ACCAUACUUGACAACUUCUGAUUGAAUGCCCAUGCCCAAUGCCAACAUCCACGAACGCCAAUGACCAAUGCAGUACAAUGCCAGUGUUUC: -0.195
CUCAAGUCCUGUGCUACACAUCGUAUGUACCGAAUCGGAGGAAAGGAAAAAGGAAAGUAUUAUGUUACGCCGUUCGGAUCUGCACUUCCA: -0.444
AAGUCCUGUGCUACACAUCGUAUGUACCGAAUCGGUUUUUGGUUUUUGGUUUUUGGAAAGUAUUAUGUUACGCCGUUCGGAUCUGCACUU: -1.45
CCUCAAGUCCUGUGCUACACAUCGUAUGUACCGAAUCGGAAAGGUUUGGUGGAAAGUAUUAUGUUACGCCGUUCGGAUCUGCACUUCCAG: -0.37
UAAGAAGGAAAUUGAGAGGAGAAAAACUGGAAAAGAAAUGUUGGAUUAUAAAAGAAAACAAGAAGAAGAAUUAACAAAAAGAAUGCUGGA: -0.792
UGGCCCUGGUGGCAUGCGGGGAGGAAGAGGUGGCCUCAUGGAUCGUGAUGGUCCCGGUGGAAUGUUCAGAGGUGGCCGUGGUGGAGACAG: 0.0537
ACCAUGCAGGUGGGCAUCUUUGGGAAGUGGGGCAAGGGGGGGAUAGGGAGGGGGGUAACAAAUUGGGAACAGGUGGUCCCAGGUCGUUUC: 1.1
UCAAGUCCUGUGCUACACAUCGUAUGUACCGAAUCGGGGUUGGGUUGGUUGGGGAAAGUAUUAUGUUACGCCGUUCGGAUCUGCACUUCC: 0.799
UAACUUUAGAGGAGGAUCUGAUGGAUAUGGCAAUGGACGUGGAUUUGGGGAUGGCUAUAAUGGGUAUGGAGGAGGACCUGGAGGUGGCAA: 0.352

Block 3
Target: POU, POU domain (Salpingoeca helianthica)
Method: Spec-seq
Molecule type: double-stranded DNA, one strand shown
Matrix: in vitro
Concentration: not given
Setting: whole probe, mean of replicates
Baseline: not given
Direction: lower = stronger binding
Endpoint: relative binding energy
Shared flanks, not repeated: GAGTCGTCTCGTCAGCAC … CCGTAGAGCACTCAGGTC
Construct (chain): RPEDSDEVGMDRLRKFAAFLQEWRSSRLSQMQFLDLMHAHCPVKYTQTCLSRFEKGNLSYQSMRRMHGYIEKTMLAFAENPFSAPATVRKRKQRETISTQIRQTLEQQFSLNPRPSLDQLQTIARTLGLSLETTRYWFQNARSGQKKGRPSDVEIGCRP
ATGCCCCA: 1.37 ln ratio
ATGCTTGA: 1.45 ln ratio
CGTATAAT: 0.533 ln ratio
ATGCCTCT: 1.04 ln ratio
TTACTAAT: 0.293 ln ratio
ATGCCATC: 1.09 ln ratio
ATCATAAT: 0.397 ln ratio
ATGCTCTT: 1.31 ln ratio
ATGCCTAA: 0.784 ln ratio
TTGATAAT: 0.148 ln ratio
ATAGCCAT: 1.39 ln ratio
ATGCCTCA: 1.69 ln ratio
ATGCGGAG: 1.48 ln ratio
ATCCCAAT: 1.11 ln ratio
ATATCGAT: 1.03 ln ratio
GCGGTAAT: 0.712 ln ratio
ATGCAATT: 0.67 ln ratio
GGGCTAAT: 0.812 ln ratio
GGTATAAT: 0.375 ln ratio
TATTTAAT: -0.778 ln ratio
ATAGGAAT: 1.52 ln ratio
ATGCCGAC: 1.36 ln ratio
ATGCGAAA: 1.3 ln ratio
CGCCTAAT: 0.939 ln ratio
TCCCTAAT: 0.635 ln ratio

Block 4
Target: TAR DNA-binding protein 43, full length, His tag (TARDBP, Homo sapiens, UniProt Q13148, residues 1-414)
Method: RNA Bind-n-Seq
Molecule type: RNA
Matrix: in vitro
Concentration: 20 nM
Setting: 6-mer, flanks averaged, single round
With: 150 mM KCl
Baseline: input library
Direction: higher = stronger binding
Endpoint: 6-mer enrichment (R)
GGAGCC: 1.49
AAUAGU: 0.691
AUGUCU: 0.637
CGAUGA: 0.79
CGUAAA: 0.636
UUGGGC: 1.68
AGCGAC: 0.808
CAUUAA: 0.577
ACAUUG: 0.645
CGUCUC: 0.606
CAGCUC: 0.621
CUAAAC: 0.585
GGUCGA: 1.46
AACCGG: 0.974

Block 5
Target: RNA binding protein fox-1 homolog 2, RRM domain, GST-SBP tag (RBFOX2, Homo sapiens, UniProt O43251-10, residues 100-194)
Method: RNA Bind-n-Seq
Molecule type: RNA
Matrix: in vitro
Concentration: 365 nM
Setting: natural RNA segment, single round, ends assumed
Baseline: no-protein control
Direction: higher = stronger binding
Endpoint: RBNS enrichment (R)
Shared flanks, not repeated: GGGAGUUCUACAGUCCGACGAUC … UGGAAUUCUCGGGUGCCAA
Residues (chain): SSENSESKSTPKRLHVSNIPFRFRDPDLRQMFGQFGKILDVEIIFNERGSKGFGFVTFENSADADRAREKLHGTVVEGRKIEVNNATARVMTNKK
GAGAAGACCACUGUGAGCAUUUUGCCGUAUAUCCUGCCCUGCCAUUUGUUCACUUUUUAAACUAAAAUAGGAACAUCCGACACACACCGUUUGCAUCGUCUUCUCCCUUG: 0.348
UAAAAAUGGAUAGAAAAUAAAAAUAUAAGUUAGUAUGGUUUAAUUCUGAAAAUACAAAUUAUCUUCCUUUAAGAAACCUACCAUUAAGCCAGGUGUGGAUUGACACACCU: 0.832
UGUUGGAUACCAAAGCACGGUAGCUGCCGGGUGAGCGGCAGUGAUUGGCAGAGAUGGGGACUUGAGUGACCAUGUUGGGUUCCCUUCUUCUCCUUCUUGCAGGACACAAA: 2.11
CUCGAGUACUGUGGGCAAUUUAGAAAAAGAACAUGCAGUUUGAAAUUCUGAAUUUGCAAAGUACUGUAAGAAUAAUUUAUAGUAAUGAGUUUAAAAAUCAACUUUUUAUU: 0.786
GAAAGUAUUUACCUUAUUUAUAUACCUGAAUGUUCCUAUUAAACAAAUAAACAUAUACUAAAUUCUAGAUUGUGCGUGUUUUUUGAUGGGAGAAGCCCUUUUAAAACGAU: 0.957
CCAAUCCUAUGUUUUUGUUCAAAGCCAGCGUCCUCCUCUGUGACCAAUGUCUUGAUGCAUGCACUGUUCCCCCUGUGCAGCCGCUGAGCGAGGAGAUGCUCCUUGGGCCC: 3.14
CUAAUAAAAUUGCCCGUUUUGCAUUUGUACCCAGAGUAAUAUGUGCCAGAUACUUCAAUCUCAGAAUUACUAAGAAUCUGGCAGAAGUCCAGAGAAAAGAAAGUAUAAUU: 1.61
UGACUUUACGUGCAAAUGUUUUGACCAUAUUGAUCAUAUAUUUUGACAAAAUAUAUUUAUAACUACGUAUUAAAAGAAAAAAAUAAAAUGAGUCAUUAUUUUAAAGGUAA: 0.597
UUUAUCUGGACAGCUCUCCUACCCUGUAUCUUCUCCUCAGAUCUGAGGAUAGCAGGCUGGACUAUUGGUGGGCACCUUUCAAGCCCAGGGCUACUGUUUGUCCUGUGGCA: 0.561
UUCUUAUAAGUGUCUUACUUUAAAUCAUGAUAAUAGAAUGUGCACAGUAGCUGAAUUGUGUUAUCAAAACAACUCUGACUUCUGCCCAGAGCACAUUAAAACCAAAGUCU: 0.313
ACUGGAUGGGUGGAAUAGGGAAGCAGAUCACUUUUGCAUACAAAAACUCUUUCAAACCCAAAAUAUUAUUGGUGGUACAUUUUAAAGUCCAAUUGUGGACUUAAAUUAGU: 0.458
UACAUCCUUGUUUCUGUCUGGUAGAGAGUUUGCUUCUCAAAUGGAGCAAACAAAUUUGAUUAUUUUUUCAUUGUUAAAUAGGCAACAUGACCAGAAAGGAUGGAAUGGCU: 0.449

Block 6
Target: Sal-like protein 4, full length isoform A (SALL4, Homo sapiens, UniProt Q9UJQ4, residues 1-1053)
Chain of UniProt Q9UJQ4 (whole entry, looked up): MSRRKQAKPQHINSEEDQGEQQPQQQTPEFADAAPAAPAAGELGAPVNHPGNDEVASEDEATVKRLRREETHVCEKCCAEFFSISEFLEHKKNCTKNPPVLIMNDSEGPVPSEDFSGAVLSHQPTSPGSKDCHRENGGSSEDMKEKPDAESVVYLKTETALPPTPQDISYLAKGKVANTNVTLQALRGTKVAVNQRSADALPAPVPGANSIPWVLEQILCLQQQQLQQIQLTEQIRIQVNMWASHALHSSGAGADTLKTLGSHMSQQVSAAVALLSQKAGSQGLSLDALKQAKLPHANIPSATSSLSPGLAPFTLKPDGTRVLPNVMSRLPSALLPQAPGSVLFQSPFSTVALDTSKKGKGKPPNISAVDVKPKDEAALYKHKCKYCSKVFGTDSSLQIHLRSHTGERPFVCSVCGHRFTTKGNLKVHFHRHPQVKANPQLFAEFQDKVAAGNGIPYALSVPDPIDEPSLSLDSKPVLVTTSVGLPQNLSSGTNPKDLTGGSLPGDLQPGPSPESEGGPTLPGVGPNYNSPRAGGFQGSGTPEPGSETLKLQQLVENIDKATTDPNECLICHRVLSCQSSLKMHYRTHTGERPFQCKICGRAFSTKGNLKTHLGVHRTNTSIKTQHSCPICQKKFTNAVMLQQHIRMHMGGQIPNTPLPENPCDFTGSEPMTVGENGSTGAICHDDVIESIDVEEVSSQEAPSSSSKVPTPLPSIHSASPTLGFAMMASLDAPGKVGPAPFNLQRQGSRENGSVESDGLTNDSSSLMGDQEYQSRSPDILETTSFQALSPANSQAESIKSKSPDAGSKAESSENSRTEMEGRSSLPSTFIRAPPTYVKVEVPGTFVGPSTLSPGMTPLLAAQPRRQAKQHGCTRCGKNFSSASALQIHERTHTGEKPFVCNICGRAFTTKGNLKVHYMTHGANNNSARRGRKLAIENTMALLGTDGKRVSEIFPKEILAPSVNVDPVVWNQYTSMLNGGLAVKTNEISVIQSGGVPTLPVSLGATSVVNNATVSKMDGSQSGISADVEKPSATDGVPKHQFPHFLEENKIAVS
Method: universal PBM
Molecule type: double-stranded DNA, one strand shown
Matrix: in vitro
Concentration: 600 nM
Setting: 8-mer, flanks averaged, mean of replicates
Direction: higher = stronger binding
Endpoint: E-score
CTGCAAAC: 0.0824
CCAGTACA: 0.102
AAGACGCC: -0.259
ACCTATGG: -0.066
GGGCCATA: -0.106
TGCAAAAA: 0.247
CAATTAGA: 0.143
CGGCCAGC: -0.277
CCGTAGGA: -0.202
TCATTAAA: 0.311
CCAACGTC: -0.246
AGACGCAC: -0.0921
CACTAAAG: -0.0315
CAGGCCCG: -0.361
AACACGCC: -0.197
AAAGCCCA: -0.113
CACCTCAG: -0.17

Repeated from above (block 5):
GAAAGUAUUUACCUUAUUUAUAUACCUGAAUGUUCCUAUUAAACAAAUAAACAUAUACUAAAUUCUAGAUUGUGCGUGUUUUUUGAUGGGAGAAGCCCUUUUAAAACGAU: 0.957
CCAAUCCUAUGUUUUUGUUCAAAGCCAGCGUCCUCCUCUGUGACCAAUGUCUUGAUGCAUGCACUGUUCCCCCUGUGCAGCCGCUGAGCGAGGAGAUGCUCCUUGGGCCC: 3.14
CUAAUAAAAUUGCCCGUUUUGCAUUUGUACCCAGAGUAAUAUGUGCCAGAUACUUCAAUCUCAGAAUUACUAAGAAUCUGGCAGAAGUCCAGAGAAAAGAAAGUAUAAUU: 1.61
UGACUUUACGUGCAAAUGUUUUGACCAUAUUGAUCAUAUAUUUUGACAAAAUAUAUUUAUAACUACGUAUUAAAAGAAAAAAAUAAAAUGAGUCAUUAUUUUAAAGGUAA: 0.597
UUUAUCUGGACAGCUCUCCUACCCUGUAUCUUCUCCUCAGAUCUGAGGAUAGCAGGCUGGACUAUUGGUGGGCACCUUUCAAGCCCAGGGCUACUGUUUGUCCUGUGGCA: 0.561
UUCUUAUAAGUGUCUUACUUUAAAUCAUGAUAAUAGAAUGUGCACAGUAGCUGAAUUGUGUUAUCAAAACAACUCUGACUUCUGCCCAGAGCACAUUAAAACCAAAGUCU: 0.313
